Experimental data of several laboratories.
Numbered parts are unrelated; each lists some results of a single study.

Set 1 — method: universal PBM; molecule type: double-stranded DNA, one strand shown; medium: in vitro; concentration: not given; reading: higher = stronger binding
Target: Sal-like protein 4, full length isoform B (SALL4, Homo sapiens, UniProt Q9UJQ4-2, residues 1-616)
Notes: 8-mer, flanks averaged, mean of replicates
Construct (chain): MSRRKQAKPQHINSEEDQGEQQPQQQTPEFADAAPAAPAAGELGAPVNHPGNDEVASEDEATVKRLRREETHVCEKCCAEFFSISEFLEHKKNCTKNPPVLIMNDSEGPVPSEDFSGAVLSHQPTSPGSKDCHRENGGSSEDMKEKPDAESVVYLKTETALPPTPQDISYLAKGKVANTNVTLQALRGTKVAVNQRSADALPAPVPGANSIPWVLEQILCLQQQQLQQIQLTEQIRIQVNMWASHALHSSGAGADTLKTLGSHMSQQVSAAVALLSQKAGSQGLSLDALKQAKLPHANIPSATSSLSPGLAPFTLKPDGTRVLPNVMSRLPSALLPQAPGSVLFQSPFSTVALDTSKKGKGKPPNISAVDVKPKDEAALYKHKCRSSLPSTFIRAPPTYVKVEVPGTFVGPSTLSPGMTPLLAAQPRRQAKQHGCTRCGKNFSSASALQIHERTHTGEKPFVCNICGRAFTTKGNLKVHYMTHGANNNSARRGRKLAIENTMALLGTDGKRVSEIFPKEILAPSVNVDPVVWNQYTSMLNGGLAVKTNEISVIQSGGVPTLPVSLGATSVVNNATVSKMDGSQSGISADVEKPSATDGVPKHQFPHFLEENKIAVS
`CCGGCTGA` has an E-score of -0.341.
The E-score of `GGTATACA` is reported as 0.108.
`GACTCCCC` has an E-score of -0.248.
For `ATACCATG`, the E-score was 0.0517.
`CCCTCCCA` gave an E-score of -0.108.
The E-score of `CCAGCGTC` is reported as -0.321.
For `AAAGTCTA`, the E-score was 0.0604.

Set 2 — method: RNA Bind-n-Seq; molecule type: RNA; medium: in vitro; concentration: 20 nM; notes: 6-mer, flanks averaged, single round; with: 150 mM KCl; reference: input library; reading: higher = stronger binding
Target: TAR DNA-binding protein 43, full length, His tag (TARDBP, Homo sapiens, UniProt Q13148, residues 1-414)
Under “6-mer enrichment (R)”, `GCCUAU` is recorded as 0.67.
`UGGUUC` — result for “6-mer enrichment (R)”: 0.689.
`GAAUAC`: “6-mer enrichment (R)” 0.662.
Under “6-mer enrichment (R)”, `AUCAGU` is recorded as 0.621.
For `CCCAGU`, “6-mer enrichment (R)” read 0.675.
Under “6-mer enrichment (R)”, `GCGACG` is recorded as 1.71.
`ACGGCA` — result for “6-mer enrichment (R)”: 0.892.

Set 3 — method: protein-binding microarray; molecule type: double-stranded DNA, one strand shown; medium: in vitro; concentration: 2540 nM top; notes: 60-bp whole probe; with: salmon DNA 0.4 mg/ml; reference: random background probes; reading: higher = stronger binding
Target: Interferon regulatory factor 3, full length, phosphomimetic (IRF3, Homo sapiens, UniProt Q14653, residues 1-427, S386D/S396D/S398D/S402D/T404D/S405D)
Residues (chain): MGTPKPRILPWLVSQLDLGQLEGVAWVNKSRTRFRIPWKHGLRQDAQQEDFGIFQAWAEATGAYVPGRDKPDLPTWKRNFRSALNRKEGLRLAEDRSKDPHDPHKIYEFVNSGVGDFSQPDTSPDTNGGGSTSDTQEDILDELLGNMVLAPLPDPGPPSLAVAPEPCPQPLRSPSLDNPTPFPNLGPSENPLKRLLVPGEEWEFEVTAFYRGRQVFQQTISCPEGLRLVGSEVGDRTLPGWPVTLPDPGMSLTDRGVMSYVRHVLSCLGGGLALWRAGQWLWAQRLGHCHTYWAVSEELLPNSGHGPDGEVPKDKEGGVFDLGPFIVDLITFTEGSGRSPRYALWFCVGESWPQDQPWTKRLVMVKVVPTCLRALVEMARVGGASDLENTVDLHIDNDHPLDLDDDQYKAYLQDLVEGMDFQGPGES
For `GCCTAGCACTCACATCTGATTTCTCAAACTGTGCTAGTCTTGATTCGCTTGACGCTGCTG`, “fitted relative affinity” read 0.988 z-score.
Under “fitted relative affinity”, `GCCTAGCACTTAGATATCAGTTTTGATTAGTGCTAGGTCTTGATTCGCTTGACGCTGCTG` is recorded as 2.22 z-score.
For `GCCTAGCACAGGAAGACATCAAAGAGAGCGTGCTAGGTCTTGATTCGCTTGACGCTGCTG`, “fitted relative affinity” read -0.752 z-score.
`GCCTAGCACTTAGGTATCGGGTTTCCGTTAGTGCTAGTCTTGATTCGCTTGACGCTGCTG`: “fitted relative affinity” 3.16 z-score.

Single results of other studies
`PhoQ, residues 284 288 289 292 302 303 SSCCRF` has a fold induction of 8.04 (PhoP, residues 12 14 15 18 19 NQAHL (Escherichia coli, UniProt P23836); Sort-seq, refers to: YFP reporter; E. coli; PhoQ-PhoP variant library, with: 10 µM Mg2+; reference: high Mg2+ state, higher = stronger signaling).

Excerpt of the above (single results of other studies):
`PhoQ, residues 284 288 289 292 302 303 SSCCRF` has a fold induction of 8.04 (PhoP, residues 12 14 15 18 19 NQAHL (Escherichia coli, UniProt P23836); Sort-seq, refers to: YFP reporter; E. coli; PhoQ-PhoP variant library, with: 10 µM Mg2+; reference: high Mg2+ state, higher = stronger signaling).
